# Measured values collected from several papers.
# Each line is one published result; not all experiments were run side by side. “And” joins repeats or separate records; there may be more than shown. Numbers after ± are the reported error.
Compound,organism,test,test system,conditions,how to read,quantity,value
Nc1ccn([C@H]2CC[C@@H](CO)O2)c(=O)n1,Human immunodeficiency virus 1,"viral replication, p24 ELISA","PHA-stimulated PBMC, NL4-3, CXCR4-tropic",7 days,,IC50,12 ± 3 nM
Cc1nc2[nH]c(=O)n(O)c(=O)c2s1,Echinochloa crus-galli,glasshouse pot,,"750 g/ha, 21 days, pre-emergence",,inhibition,0%
O=c1c(-c2nc3ccccc3s2)cc2c(n1NS(=O)(=O)c1ccccc1)CCCC2,Human alphaherpesvirus 1,"viral replication, plaque reduction",Vero cells,non-toxic concentration,,reduction,40%
CC1=CC(=O)CC(C)(C)[C@@]1(O)/C=C/C(C)=C\C(=O)O,Arabidopsis thaliana,DAB staining,"wild type, rosette leaves","1 µM, 2 h",higher = more H2O2,H2O2 staining intensity,249 a.u. and 295 a.u. and 279 a.u. and 313 a.u. and 280 a.u. and 223 a.u. and 107 a.u. and 224 a.u.
CC(C)n1ncc2c(C(=O)NCC3(C)CNC3)cc(C3CC3)nc21,Enterovirus D68,cytopathic effect,"RD, US/IL/14-18952",5 nM,,cell protection,-0.405% and -1.35% and -0.135%
CC(=O)N1CCC(C(=O)N2CCN3C(=O)c4cc(-c5ccccc5)ccc4NC(=O)C3C2)CC1 (stereo not drawn),Caenorhabditis elegans,,N2,50 µM,,median lifespan,27 days
Nc1nc2c(ncn2COCCO)c(=O)[nH]1,herpes simplex virus 2,viral cytopathic effect,"Vero, G",120 h,,EC50,190 nM
C=C[C@]1(C)C[C@@H](OC(=O)CS[C@@H]2C[C@H]3CC[C@@H](C2)N3C)[C@]2(C)[C@H](C)CC[C@]3(CCC(=O)[C@H]32)[C@@H](C)[C@@H]1O,Enterococcus faecium,agar dilution,"vancomycin-intermediate, 25 isolates",,,MIC50,64 µg/mL
C[C@@H]1[C@H](O)[C@@H](C)/C=C/C=C/C=C/C=C/C=C/C=C/C=C/[C@H](O[C@@H]2O[C@H](C)[C@@H](O)[C@H](N)[C@@H]2O)C[C@@H]2O[C@](O)(C[C@@H](O)C[C@@H](O)[C@H](O)CC[C@@H](O)C[C@@H](O)CC(=O)O[C@H]1C)C[C@H](O)[C@H]2C(=O)O,Aspergillus fumigatus,,Af 293,"4 × MIC, 12 h",,viable cell reduction,65 to 70%
CC[C@H]1OC(=O)[C@H](C)[C@@H](O[C@H]2C[C@@](C)(OC)[C@@H](O)[C@H](C)O2)[C@H](C)[C@@H](O[C@@H]2O[C@H](C)C[C@H](N(C)C)[C@H]2O)[C@](C)(O)C[C@@H](C)/C(=N\OCOCCOC)[C@H](C)[C@@H](O)[C@]1(C)O,Streptococcus agalactiae,,25 clinical isolates,,,MIC50,2 µg/mL
C[C@@H](O)[C@H]1C(=O)N2C(C(=O)O)=C(SCCN=CN)C[C@H]12,Acinetobacter baumannii,,"0403, female ICR mice, peritonitis, lung",dose not given,,bacterial load,2.52 log CFU and 3.22 log CFU and 2.82 log CFU and 3 log CFU and 3.12 log CFU
N=C(N)c1cccc(OCc2ccc(COc3cccc(C(=N)N)c3)cc2)c1,Escherichia coli,checkerboard,mcr-2 polymyxin-resistant,"concentration not given, 20 h, with: rifampicin",,MIC of compound in combination,25 µg/mL
O=C(N1CCc2ccccc21)n1ccnn1,Arabidopsis thaliana,,"atd14-1 mutant, seedlings","5 µM, continuous red light, with: 1 µM (±)-GR24",,hypocotyl length,2.94 mm and 2.11 mm and 2.18 mm and 1.71 mm and 1.99 mm and 2.84 mm
COC(=O)[C@@H](CCSC)NCc1cc2ccccc2nc1SC,Pseudomonas aeruginosa,,,"4 µg/mL, with: pentamidine 100 µM",reference: control,growth,98%
CN[C@H](CC(C)C)C(=O)N[C@H]1C(=O)N[C@@H](CC(N)=O)C(=O)N[C@H]2C(=O)N[C@H]3C(=O)N[C@H](C(=O)N[C@H](C(=O)O)c4cc(O)cc(O)c4-c4cc3ccc4O)[C@H](O)c3ccc(c(Cl)c3)Oc3cc2cc(c3O[C@@H]2O[C@H](CO)[C@@H](O)[C@H](O)[C@H]2O[C@H]2C[C@](C)(N)[C@H](O)[C@H](C)O2)Oc2ccc(cc2Cl)[C@H]1O,Streptococcus pyogenes,,ATCC 19615,1 strain,,MBC range,1 µg/mL
N=C(N)c1ccc(OCc2cc(COc3ccc(C(=N)N)cc3)cc(-c3ccccc3)c2)cc1,Escherichia coli,checkerboard,mcr-2 polymyxin-resistant,"unit not given, with: rifampicin",lower = stronger synergy,FICI,0.047
O=c1[nH]c2ncsc2c(=O)n1O,Echinochloa crus-galli,glasshouse pot,,"1500 g/ha, 21 days, pre-emergence",,inhibition,1.5%
CC(=O)Oc1ccccc1C(=O)Nc1ncc([N+](=O)[O-])s1,Cryptosporidium parvum,,HCT-8,"3 x EC90, 0 h",reference: DMSO control,parasite number,93.3% and 109% and 101% and 96.8%
COC(=O)[C@H](Cc1ccc(O)cc1)NCc1cc2ccccc2nc1SC,Pseudomonas aeruginosa,,,"64 µg/mL, without pentamidine",reference: control,growth,90%
CN1CCN(CCNCc2cc3cc(Br)ccc3nc2SCc2ccccc2)CC1,Acinetobacter baumannii,"NADH-driven proton pumping, ACMA quenching",inverted membrane vesicles,2 µg/mL,,inhibition,41%
CCOC(=O)c1c(C)nc(NCCCCNc2ccnc3cc(Cl)ccc23)nc1C,feline herpesvirus,viral replication,CRFK,,,EC50,> 4000 nM
C=C[C@]1(C)C[C@@H](OC(=O)CSCCN(CC)CC)[C@]2(C)[C@H](C)CC[C@]3(CCC(=O)[C@H]32)[C@@H](C)[C@@H]1O,Mycoplasma gallisepticum,,infected chickens,"intramuscular, 40 mg/kg, score scale 0 to 4",direction not given,air sac lesion score,1.88
COC[C@H]1O[C@@H]2O[C@H]3[C@H](OC)[C@@H](OC)[C@@H](O[C@H]4[C@H](OC)[C@@H](OC)[C@@H](O[C@H]5[C@H](OC)[C@@H](OC)[C@@H](O[C@H]6[C@H](OC)[C@@H](OC)[C@@H](O[C@H]7[C@H](OC)[C@@H](OC)[C@@H](O[C@H]8[C@H](OC)[C@@H](OC)[C@@H](O[C@H]1[C@H](OC)[C@H]2OC)O[C@@H]8COC)O[C@@H]7COC)O[C@@H]6COC)O[C@@H]5COC)O[C@@H]4COC)O[C@@H]3COC,Escherichia coli,"LuxR reporter, antagonist",DH5α sensor strain,"100 µM, with: OHHL 200 nM",,inhibition,1%
CC1=C[C@H](O/C=C2/C(=O)O[C@@H]3c4ccccc4C[C@H]23)OC1=O (racemic),Arabidopsis thaliana,,"max2-1 mutant, seedlings",1 µM,,hypocotyl length,9.53 mm
COC(=O)[C@H](Cc1c[nH]c2ccccc12)NCc1cc2ccccc2nc1SC,Pseudomonas aeruginosa,,,"16 µg/mL, with: pentamidine 50 µM",reference: control,growth,86.1%
CCOC(=O)/C=C/[C@H](C[C@@H]1CCNC1=O)NC(=O)[C@@H](CC(=O)[C@@H](NC(=O)c1cc(C)on1)C(C)C)Cc1ccc(F)cc1,Rhinovirus C,high-throughput screen,RV-C15a-mGL,10 µM,,viral replication,inhibited
CC1=CC(=O)CC(C)(C)[C@@]1(O)/C=C/C(C)=C\C(=O)O,Arabidopsis thaliana,,"pyr1/pyl1/pyl2/pyl4 mutant, seeds",1 µM,,number of germinated seeds,29 and 33 and 31
COc1cc(C#CC(=O)c2ccccc2)ccc1O,Pseudomonas aeruginosa,"RT-qPCR, refers to: lasB",biofilm cells,"10 µM, 24 h",reference: untreated,mRNA level,21%
Cc1cc(OC(C)C)ccc1C(=O)C(C)(C)NC(=O)c1sccc1C,Botrytis cinerea,germ tube elongation,B05.10,0.003 µg/mL,,inhibition,14.9 ± 16.2%
Nc1nc2c(ncn2COCCO)c(=O)[nH]1,herpes simplex virus 2,viral replication,"HEL cells, G",,,EC50,1200 nM
CN[C@H](CC(C)C)C(=O)N[C@H]1C(=O)N[C@@H](CC(N)=O)C(=O)N[C@H]2C(=O)N[C@H]3C(=O)N[C@H](C(=O)N[C@H](C(=O)O)c4cc(O)cc(O)c4-c4cc3ccc4O)[C@H](O)c3ccc(c(Cl)c3)Oc3cc2cc(c3O[C@@H]2O[C@H](CO)[C@@H](O)[C@H](O)[C@H]2O[C@H]2C[C@](C)(N)[C@H](O)[C@H](C)O2)Oc2ccc(cc2Cl)[C@H]1O,Staphylococcus,,"MRSE-37, mouse systemic infection",intravenous,survival,ED50,13.1 mg/kg
Nc1nc(-c2ccccc2)nc2[nH]nc(Nc3ccc(C(F)(F)F)cc3)c12,coxsackievirus B3,,"31-1-93, NMRI mice, CVB3 chronic myocarditis","oral, 100 mg/kg twice daily, day 6, dosed days 1 to 7, score scale 0 to 7",direction not given,clinical score,0.44
CC(=O)NC[C@H]1CN(c2ccc(N3CCOCC3)c(F)c2)C(=O)O1,Streptococcus pneumoniae,,,,,MIC50,0.5 µg/mL
CCOC(=O)c1c(C)nc(NCCCCNc2ccnc3cc(Cl)ccc23)nc1-c1ccccc1,feline herpesvirus,viral replication,CRFK,,,EC50,> 4000 nM
Brc1ccc2nc(SCc3ccccc3)c(CNCc3ccc(CN4CCCC4)cc3)cc2c1,Acinetobacter baumannii,"NADH-driven proton pumping, ACMA quenching",inverted membrane vesicles,2 µg/mL,,inhibition,9%
Cc1c(CN(C)C(=O)/C=C/c2cnc3c(c2)CC(NC(=O)OC(C)(C)C)C(=O)N3)oc2ccccc12 (stereo not drawn),Acinetobacter baumannii,broth microdilution,AR-0311,,,MIC,> 32 µg/mL
